Measured values from different studies.
Compare with care: the assays were run in different laboratories. ± gives the spread as reported.
Cell line: A549

| Structure (SMILES) | observed | technique | time | notes | added | IC50 |
| --- | --- | --- | --- | --- | --- | --- |
| COc1cc(N(C)CCN(C)C)c(NC(=O)/C=C/c2cc(F)cc(Cl)c2)cc1Nc1nccc(-c2cn(C)c3ccccc23)n1 | cell growth or viability | MTT | 72 h | – | – | 0.433 µM |
| Nc1cccc[n+]1Cc1cccc(C[n+]2ccccc2N)c1 | cell growth or viability | MTT | 72 h | – | – | 11.2 µM |
| Cc1ccc(C(C)C)cc1.O=C(N=P12CN3CN(CN(C3)C1)C2)c1[c-]cccc1.[Cl-].[Ru+2] | cell growth or viability | MTT | 24 h | – | – | > 125 µM |
| COc1cc2c(cc1O)[C@]1(O)C(=O)c3c(O)cc4c(c3O[C@@H]1CO2)C=CC(C)(C)O4 | cell growth or viability | MTT | – | – | – | 81 µM |
| Cc1cccc2c1NC(=O)C21C2=C(COC2=O)NC2=C1C(=O)c1ccccc1C2=O (centres unmarked) | cell growth or viability | MTT | 72 h | – | – | 2.28 µM |
| N#Cc1cccc(-c2ccc(=O)n(Cc3cccc(-c4ncc(OCC5CCN(CC(=O)NCCOCCOCCOCCNc6ccc7c(c6)C(=O)N(C6CCC(=O)NC6=O)C7=O)CC5)cn4)c3)n2)c1 (centres unmarked) | cell growth or viability | CCK-8 | 72 h | – | – | 0.433 µM |
| COc1c(O)cc2oc3cc4c(c(O)c3c(=O)c2c1CC(O)C(C)(C)O)CC(O)O4 (centres unmarked) | cell growth or viability | – | 48 h | – | – | > 40 µM |
| CCCCCCC(=O)NCCNC(=O)[C@@]1(C)[C@H](O)CC[C@@]2(C)[C@H]1CC[C@]1(C)[C@@H]2C(=O)C=C2[C@@H]3[C@@H](C)[C@H](C)CC[C@]3(C)CC[C@]21C | cell growth or viability | MTT | 48 h | – | – | 19.5 µM |
| N#Cc1cccc(-c2ccc(=O)n(Cc3cccc(-c4ncc(OCC5CCN(CCCCCCCCCC(=O)Nc6cccc7c6C(=O)N(C6CCC(=O)NC6=O)C7=O)CC5)cn4)c3)n2)c1 (centres unmarked) | cell growth or viability | CCK-8 | 72 h | – | – | 21 µM |
| CCCCN(CCCC)CC(O)COc1c2ccoc2c(OC)c2oc(CC)cc(=O)c12 (centres unmarked) | cell growth or viability | MTT | 72 h | – | – | 26.3 µM |
| O=C1c2cccc3cccc(c23)C12NC(Cc1ccc(O)cc1)C([N+](=O)[O-])C2c1cccc([N+](=O)[O-])c1 (centres unmarked) | cell growth or viability | MTT | 48 h | – | – | 65.4 µM |
| COc1c(OC(C)=O)cc2oc3cc(OC(C)=O)c(CC=C(C)C)c(O)c3c(=O)c2c1CC=C(C)C | cell growth or viability | – | 48 h | – | – | 11.6 µM |
| CCOC12C(O)C(OC)C3(O)CC(C1C3OC(=O)c1ccccc1)C13C(OC)CC(O)C4(COC)CN(C)C1C2C(OC)C43 (centres unmarked) | cell growth or viability | MTT | – | – | – | 17.6 µM |
| CCn1cc[n+](CC)[c]1[Au-][Cl] | cell growth or viability | crystal violet | 72 h | – | – | 13.5 µM |
| O=C1N=C(N2N=C(c3cccs3)CC2c2ccc(F)cc2)S/C1=C\c1ccccc1 (centres unmarked) | cell growth or viability | MTT | – | – | – | 37.5 µM |
| COc1ccc(/C=C/C2=[N+]3C(=C(CO)c4c(C)cc(/C=C/c5ccc(OC)cc5)n4[B-]3(F)F)C(C)=C2C=O)cc1 | phototoxicity | resazurin | – | – | 645 nm light, 9.00 J/cm2 | 8.3 ± 0.4 µM |
| Cc1cc(C)c([N+]#[C][Pt-]([Cl])([Cl])=[C](Nc2cccc(CN[C](NC(C)(C)C)=[Au][Cl])c2)Nc2c(C)cc(C)cc2C)c(C)c1 | cell growth or viability | – | – | – | – | > 100 µM |
| COc1cc(N(C)CCN(C)C)c(NC(=O)/C=C/c2ccc3c(c2)OCO3)cc1Nc1nccc(-c2cn(C)c3ccccc23)n1 | cell growth or viability | MTT | 72 h | – | – | 0.295 µM |
| COc1ccc(-c2nnc(-c3ccccn3)[nH]2)cc1OC | cell growth or viability | MTT | 24 h | – | – | > 100 µM |
| Brc1ccc2nc3c4ccc[n+]5c4c4c(ccc[n+]4[Ru-4]546([n+]5ccccc5-c5cccc[n+]54)[n+]4ccccc4-c4cccc[n+]46)c3nc2c1.[O-][Cl+3]([O-])([O-])O.[O-][Cl+3]([O-])([O-])O | cell growth or viability | MTT | 72 h | – | – | 94.1 µM |
| CC(C)=CCC1=C([O-])C(=O)c2ccccc2C1=O.CC(C)=CCC1=C([O-])C(=O)c2ccccc2C1=O.[Cu+2].c1ccc(-c2ccnc3c2ccc2c(-c4ccccc4)ccnc23)cc1 | cell viability | MTT | 24 h | – | – | 1.3 ± 0.3 µM |
| S=c1n(-c2ccccc2)c2c3ccccc3nc3[n+]2[n]1[Ir-3]12([S]3)([c]3cccc4ccc5ccc[n+]1c5c34)[c]1cccc3ccc4ccc[n+]2c4c13 | cell viability | MTT | – | dark | – | > 50 µM |

| Structure (SMILES) | observed | technique | time | notes | added | IC50 |
| --- | --- | --- | --- | --- | --- | --- |
| CC(=O)O[C@@H]1CC[C@@]2(C)[C@@H](CC[C@]3(C)[C@@H]2C(=O)C=C2[C@@H]4[C@@H](C)[C@H](C)CC[C@]4(C)CC[C@]23C)[C@@]1(C)C(=O)NCCNC(=O)OC(C)(C)C | cell growth or viability | MTT | 48 h | – | – | > 30 µM |
| N=C(N)NCCC[C@@H]1NC(=O)[C@H](CCCCN)NC(=O)[C@@H](Cc2ccc(O)cc2)NC(=O)[C@H](CC(=O)O)NC(=O)CNC1=O | cell growth or viability | MTT | – | – | – | > 100 µM |
| CCN1CCC2(CC1)C/C(=N\NC(=O)Nc1ccc(Cl)cc1)c1ccccc1O2 | cell growth or viability | MTT | 48 h | – | – | 47.7 µM |
| C[N+]1(C)CC[NH2+][Pt-2]1([OH])([Cl])([Cl])[O]C(=O)CCC(=O)OCCOC(=O)CCC(=O)[O][Pt-2]1([OH])([Cl])([Cl])[NH2+]CC[N+]1(C)C | cell growth or viability | MTT | 96 h | – | – | 356 µM |
| CCN1CCC2(CC1)C/C(=N\N=C\c1ccc(O)cc1)c1ccccc1O2 | cell growth or viability | MTT | 48 h | – | – | 20.6 µM |
| C[C@]12CC/C(=N\O)C=C1CCC1C2CC[C@]2(C)/C(=C/c3ccccn3)CCC12 (some centres unmarked) | cell growth or viability | MTT | 72 h | – | – | 1.5 µM |
| Cc1cc(C=O)cc(C)c1Oc1cc(Nc2ccc(C#N)cn2)nc2cnccc12 | – | – | 48 h | – | – | 55.5 ± 5.5 µM |
| Cc1c(C)c(C)[c-](C)c1C.OCc1ccnc(-c2[c-]cccc2)c1.[Cl-].[Ir+3] | – | SRB | 24 h | 72 h recovery | – | 89 ± 1 µM |
| O=C1c2cccc3cccc(c23)C12NC(Cc1ccc(O)cc1)C([N+](=O)[O-])C2c1ccc(Br)cc1 (centres unmarked) | cell growth or viability | MTT | 24 h | – | – | 40.2 µM |
| O=C(/C=C/c1ccc2c(c1)C(=O)N(CCCc1ccccc1)CC2)NO | cell growth | SRB | 72 h | – | – | 2.28 ± 1 µM |
| COCCOCCSc1nc(N)c2c(F)c(C#N)c(F)c(F)c2n1 | cell growth or viability | MTT | 96 h | – | – | 6.5 µM |
| O=[N+]([O-])[O-].[NH3+][Pt-2]1([NH3+])[O]C(C(F)(F)F)=CC(c2ccccc2)=[O+]1 (centres unmarked) | cell growth or viability | MTT | – | – | – | 1.3 µM |
| CC(=O)O[C@@H]1CC[C@@]2(C)[C@@H](CC[C@]3(C)[C@@H]2C(=O)C=C2[C@@H]4[C@@H](C)[C@H](C)CC[C@]4(C)CC[C@]23C)[C@@]1(C)C(=O)NCCNC(=O)CCCCBr | cell growth or viability | MTT | 48 h | – | – | 9.36 µM |
| CCCC(CCC)C(=O)[O][Pt]([Cl])([Cl])[O]C(=O)C(CCC)CCC.N.N | cell growth or viability | – | – | – | – | 1.12 µM |
| COc1cc2ncnc(Nc3ccc(F)c(Cl)c3)c2cc1NC(=O)N/N=C/c1ccc[nH]1 | cell growth or viability | MTT | 72 h | – | – | 8.41 µM |
| COC(=O)[C@@H](NC(=O)[C@@H](NC(=O)[C@@H](NC(=O)OC(C)(C)C)C(C)C)C(C)C)C(C)C | cell growth or viability | SRB | – | – | – | 1 µM |
| CC(C)(C)N=[C](NCc1ccc(N)cc1)[AuH][Cl] | cell growth or viability | – | – | – | – | > 100 µM |
| O=C1C[C@@H](c2ccccc2)Oc2c(Cc3ccccc3O)c(O)cc(O)c21 | cell viability | MTT | 72 h | – | – | inactive |
| CC(C)c1cccc(C(C)C)c1[N+]#[C][Pd-]([Cl])([Cl])=[C](Nc1cccc(CN[C](Nc2c(C(C)C)cccc2C(C)C)=[Au][Cl])c1)Nc1c(C(C)C)cccc1C(C)C | cell growth or viability | – | – | – | – | 12 µM |
| Cn1cnc(Cn2ccc3ccc(CNCc4[nH]c5ccccc5c4C4NC(=O)c5ccc(O)cc54)cc32)c1 (centres unmarked) | cell growth or viability | ATP luminescence | 72 h | – | – | > 30 µM |
| C=CC(=C)CC[C@]1(C)[C@H](C)CC[C@@]23C(=C[C@H](OC(=O)C(C)C)C[C@@H]12)[C@@H](OC(C)=O)O[C@H]3OC(C)=O | cell growth or viability | SRB | – | – | – | > 40 µM |
| C[C@@H]1C(=O)CC[C@@H]2[C@]1(C)CC[C@H]1[C@@]2(C)CC[C@@]2(C)[C@@H]3CC(C)(C)CC[C@]3(C)CC[C@]12C | cell growth or viability | SRB | – | – | – | > 100 µM |

A few entries again:
| Structure (SMILES) | observed | technique | time | notes | added | IC50 |
| --- | --- | --- | --- | --- | --- | --- |
| S=c1n(-c2ccccc2)c2c3ccccc3nc3[n+]2[n]1[Ir-3]12([S]3)([c]3cccc4ccc5ccc[n+]1c5c34)[c]1cccc3ccc4ccc[n+]2c4c13 | cell viability | MTT | – | dark | – | > 50 µM |
| C[C@]12CC/C(=N\O)C=C1CCC1C2CC[C@]2(C)/C(=C/c3ccccn3)CCC12 (some centres unmarked) | cell growth or viability | MTT | 72 h | – | – | 1.5 µM |
| COc1c(O)cc2oc3cc4c(c(O)c3c(=O)c2c1CC(O)C(C)(C)O)CC(O)O4 (centres unmarked) | cell growth or viability | – | 48 h | – | – | > 40 µM |
| N#Cc1cccc(-c2ccc(=O)n(Cc3cccc(-c4ncc(OCC5CCN(CCCCCCCCCC(=O)Nc6cccc7c6C(=O)N(C6CCC(=O)NC6=O)C7=O)CC5)cn4)c3)n2)c1 (centres unmarked) | cell growth or viability | CCK-8 | 72 h | – | – | 21 µM |
| COCCOCCSc1nc(N)c2c(F)c(C#N)c(F)c(F)c2n1 | cell growth or viability | MTT | 96 h | – | – | 6.5 µM |
| CC(C)c1cccc(C(C)C)c1[N+]#[C][Pd-]([Cl])([Cl])=[C](Nc1cccc(CN[C](Nc2c(C(C)C)cccc2C(C)C)=[Au][Cl])c1)Nc1c(C(C)C)cccc1C(C)C | cell growth or viability | – | – | – | – | 12 µM |
